Experimental data gathered from unrelated publications.
A part holds a random share of what one study measured. pEC50: −log10 of the molar value.
UniProt O14578, sequence (whole entry, looked up): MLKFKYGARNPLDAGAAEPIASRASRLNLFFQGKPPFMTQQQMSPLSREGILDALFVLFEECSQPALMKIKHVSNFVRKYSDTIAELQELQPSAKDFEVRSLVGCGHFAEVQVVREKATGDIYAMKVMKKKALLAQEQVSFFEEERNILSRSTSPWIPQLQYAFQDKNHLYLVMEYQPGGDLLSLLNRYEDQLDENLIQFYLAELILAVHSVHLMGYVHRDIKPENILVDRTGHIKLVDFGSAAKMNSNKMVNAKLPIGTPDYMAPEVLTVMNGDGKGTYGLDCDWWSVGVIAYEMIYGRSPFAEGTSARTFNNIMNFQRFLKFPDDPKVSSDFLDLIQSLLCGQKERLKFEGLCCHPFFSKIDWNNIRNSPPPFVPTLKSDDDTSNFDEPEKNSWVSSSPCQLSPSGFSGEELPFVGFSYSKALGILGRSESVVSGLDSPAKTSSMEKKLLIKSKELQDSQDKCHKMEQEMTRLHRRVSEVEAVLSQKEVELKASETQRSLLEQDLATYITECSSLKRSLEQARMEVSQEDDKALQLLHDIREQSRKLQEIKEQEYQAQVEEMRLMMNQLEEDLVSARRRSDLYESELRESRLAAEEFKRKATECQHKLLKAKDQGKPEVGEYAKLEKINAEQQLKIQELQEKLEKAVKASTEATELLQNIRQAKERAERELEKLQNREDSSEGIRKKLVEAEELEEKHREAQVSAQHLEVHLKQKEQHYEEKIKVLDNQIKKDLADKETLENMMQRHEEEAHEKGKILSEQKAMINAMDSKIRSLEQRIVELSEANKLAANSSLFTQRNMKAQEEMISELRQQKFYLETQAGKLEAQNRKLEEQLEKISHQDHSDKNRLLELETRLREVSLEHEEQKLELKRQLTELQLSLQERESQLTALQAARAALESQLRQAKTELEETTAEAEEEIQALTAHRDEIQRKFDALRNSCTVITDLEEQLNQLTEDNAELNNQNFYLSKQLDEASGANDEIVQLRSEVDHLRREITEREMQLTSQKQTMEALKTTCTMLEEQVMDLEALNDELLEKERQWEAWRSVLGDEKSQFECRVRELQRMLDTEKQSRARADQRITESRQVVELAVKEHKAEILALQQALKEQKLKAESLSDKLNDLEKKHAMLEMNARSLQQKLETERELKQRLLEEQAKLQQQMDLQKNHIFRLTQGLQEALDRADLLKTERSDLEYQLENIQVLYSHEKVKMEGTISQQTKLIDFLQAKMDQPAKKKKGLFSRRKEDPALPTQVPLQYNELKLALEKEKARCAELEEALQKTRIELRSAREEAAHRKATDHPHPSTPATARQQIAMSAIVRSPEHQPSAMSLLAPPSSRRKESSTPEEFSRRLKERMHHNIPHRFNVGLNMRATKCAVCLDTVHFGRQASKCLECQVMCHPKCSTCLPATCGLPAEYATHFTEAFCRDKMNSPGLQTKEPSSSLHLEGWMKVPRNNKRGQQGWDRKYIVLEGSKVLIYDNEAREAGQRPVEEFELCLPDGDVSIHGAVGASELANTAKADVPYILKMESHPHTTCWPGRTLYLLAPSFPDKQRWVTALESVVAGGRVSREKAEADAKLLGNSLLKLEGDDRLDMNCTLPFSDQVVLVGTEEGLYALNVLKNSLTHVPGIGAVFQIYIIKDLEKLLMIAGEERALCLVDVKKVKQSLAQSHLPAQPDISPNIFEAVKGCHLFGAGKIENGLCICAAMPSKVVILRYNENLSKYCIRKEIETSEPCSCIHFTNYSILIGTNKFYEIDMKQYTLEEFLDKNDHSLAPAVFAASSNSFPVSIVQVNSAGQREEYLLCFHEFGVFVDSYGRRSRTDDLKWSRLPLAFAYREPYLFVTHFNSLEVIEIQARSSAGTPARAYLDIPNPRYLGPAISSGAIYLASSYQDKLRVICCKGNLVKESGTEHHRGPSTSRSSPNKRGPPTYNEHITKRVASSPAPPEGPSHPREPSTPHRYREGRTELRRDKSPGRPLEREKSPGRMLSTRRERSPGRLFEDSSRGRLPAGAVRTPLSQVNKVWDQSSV
UniProt P41743, sequence (whole entry, looked up): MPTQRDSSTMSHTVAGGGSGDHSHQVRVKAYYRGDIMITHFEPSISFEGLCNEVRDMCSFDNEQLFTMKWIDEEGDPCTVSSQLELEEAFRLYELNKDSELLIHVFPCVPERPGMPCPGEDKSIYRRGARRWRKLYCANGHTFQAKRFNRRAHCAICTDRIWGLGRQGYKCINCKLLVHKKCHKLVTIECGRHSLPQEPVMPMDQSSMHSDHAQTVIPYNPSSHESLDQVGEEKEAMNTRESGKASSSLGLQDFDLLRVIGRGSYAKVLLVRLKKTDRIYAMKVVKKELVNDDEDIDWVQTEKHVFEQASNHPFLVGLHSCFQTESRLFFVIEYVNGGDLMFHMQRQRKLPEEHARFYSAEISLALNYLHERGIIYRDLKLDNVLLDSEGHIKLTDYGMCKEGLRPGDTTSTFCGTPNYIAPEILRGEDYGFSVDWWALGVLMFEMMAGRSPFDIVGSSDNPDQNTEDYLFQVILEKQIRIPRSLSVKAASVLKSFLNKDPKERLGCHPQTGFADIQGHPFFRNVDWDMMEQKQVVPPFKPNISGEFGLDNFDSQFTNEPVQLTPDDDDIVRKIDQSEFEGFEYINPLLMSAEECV
UniProt P53671, sequence (whole entry, looked up): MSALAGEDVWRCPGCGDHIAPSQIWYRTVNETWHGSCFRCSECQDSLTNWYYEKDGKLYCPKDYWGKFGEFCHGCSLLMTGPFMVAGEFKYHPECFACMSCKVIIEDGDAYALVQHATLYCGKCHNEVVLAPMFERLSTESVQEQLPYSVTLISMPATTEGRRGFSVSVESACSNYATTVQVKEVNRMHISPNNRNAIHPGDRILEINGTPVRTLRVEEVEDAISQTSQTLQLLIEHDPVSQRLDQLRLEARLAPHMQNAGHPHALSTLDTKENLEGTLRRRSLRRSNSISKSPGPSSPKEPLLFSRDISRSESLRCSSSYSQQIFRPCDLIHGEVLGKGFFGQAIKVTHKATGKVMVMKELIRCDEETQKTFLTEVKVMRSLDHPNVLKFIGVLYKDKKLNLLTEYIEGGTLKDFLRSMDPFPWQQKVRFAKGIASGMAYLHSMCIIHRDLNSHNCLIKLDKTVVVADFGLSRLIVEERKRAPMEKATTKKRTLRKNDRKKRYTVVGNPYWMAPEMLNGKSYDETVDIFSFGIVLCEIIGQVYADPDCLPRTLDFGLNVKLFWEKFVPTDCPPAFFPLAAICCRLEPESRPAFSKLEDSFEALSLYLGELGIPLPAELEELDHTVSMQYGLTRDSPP
UniProt P06213, sequence (whole entry, looked up): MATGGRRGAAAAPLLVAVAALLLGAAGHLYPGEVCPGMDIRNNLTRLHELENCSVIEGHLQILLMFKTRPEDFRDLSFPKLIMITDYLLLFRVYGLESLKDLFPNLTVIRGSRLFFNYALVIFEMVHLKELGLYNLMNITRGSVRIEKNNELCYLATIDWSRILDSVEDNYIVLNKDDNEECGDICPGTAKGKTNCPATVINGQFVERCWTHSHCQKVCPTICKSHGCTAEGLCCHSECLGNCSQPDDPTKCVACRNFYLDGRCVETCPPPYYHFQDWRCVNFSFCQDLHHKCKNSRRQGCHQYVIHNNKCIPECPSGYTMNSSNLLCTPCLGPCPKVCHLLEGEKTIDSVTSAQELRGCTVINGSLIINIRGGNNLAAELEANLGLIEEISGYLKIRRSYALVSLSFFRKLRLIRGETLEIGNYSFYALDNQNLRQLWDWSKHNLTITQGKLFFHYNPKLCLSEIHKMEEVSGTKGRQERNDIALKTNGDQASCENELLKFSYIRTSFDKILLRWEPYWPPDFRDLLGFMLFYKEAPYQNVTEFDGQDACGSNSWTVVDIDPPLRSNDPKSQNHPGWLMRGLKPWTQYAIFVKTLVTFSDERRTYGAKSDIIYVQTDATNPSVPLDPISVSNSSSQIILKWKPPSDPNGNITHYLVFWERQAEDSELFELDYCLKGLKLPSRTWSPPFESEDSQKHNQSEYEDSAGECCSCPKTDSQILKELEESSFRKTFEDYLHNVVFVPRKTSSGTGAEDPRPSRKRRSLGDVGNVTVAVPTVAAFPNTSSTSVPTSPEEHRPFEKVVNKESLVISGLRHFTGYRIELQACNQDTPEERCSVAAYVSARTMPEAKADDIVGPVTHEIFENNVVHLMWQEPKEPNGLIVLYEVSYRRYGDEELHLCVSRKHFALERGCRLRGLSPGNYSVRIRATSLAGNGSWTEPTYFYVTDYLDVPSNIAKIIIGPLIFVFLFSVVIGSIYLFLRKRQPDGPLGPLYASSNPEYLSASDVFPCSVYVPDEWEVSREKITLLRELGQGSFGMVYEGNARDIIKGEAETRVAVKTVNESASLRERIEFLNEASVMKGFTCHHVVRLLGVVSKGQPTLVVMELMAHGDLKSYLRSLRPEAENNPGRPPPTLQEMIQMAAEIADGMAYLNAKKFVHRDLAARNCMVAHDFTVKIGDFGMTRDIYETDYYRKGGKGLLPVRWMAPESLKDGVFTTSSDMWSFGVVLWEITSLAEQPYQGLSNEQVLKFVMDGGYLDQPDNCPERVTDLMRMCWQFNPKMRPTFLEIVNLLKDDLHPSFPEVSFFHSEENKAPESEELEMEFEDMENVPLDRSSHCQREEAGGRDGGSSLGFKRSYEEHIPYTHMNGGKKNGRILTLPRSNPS

Sample 1 — mode: agonist
Target: Beta-1 adrenergic receptor (ADRB1, Homo sapiens, UniProt P08588)
UniProt P08588, sequence (whole entry, looked up): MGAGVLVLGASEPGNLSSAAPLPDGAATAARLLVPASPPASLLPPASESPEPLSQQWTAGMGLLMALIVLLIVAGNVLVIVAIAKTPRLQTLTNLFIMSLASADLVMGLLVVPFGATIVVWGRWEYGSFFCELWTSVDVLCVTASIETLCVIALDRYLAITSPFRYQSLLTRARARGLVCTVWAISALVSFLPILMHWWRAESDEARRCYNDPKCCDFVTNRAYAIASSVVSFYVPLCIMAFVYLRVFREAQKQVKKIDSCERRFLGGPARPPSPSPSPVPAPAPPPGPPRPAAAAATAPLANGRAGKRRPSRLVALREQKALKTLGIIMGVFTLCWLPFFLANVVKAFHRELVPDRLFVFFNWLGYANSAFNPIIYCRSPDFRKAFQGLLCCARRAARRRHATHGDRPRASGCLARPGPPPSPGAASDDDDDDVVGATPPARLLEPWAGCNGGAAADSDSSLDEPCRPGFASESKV
Compound | pEC50
Cc1cc2c(F)c(Oc3ncnn4cc(OC[C@@H](C)OC(=O)[C@H](C)N)c(C)c34)ccc2[nH]1 | ≤ 4.00
COc1ccccc1NC(=O)c1sc2nc(C)c(C(=O)Nc3ccc(C)cc3C)c(-c3ccc(C)o3)c2c1N | ≤ 4.00
O=C(Nc1ccc([C@@H](O)[C@H]2COCC(=O)N2Cc2ccc(F)cc2)cc1)c1cccs1 | ≤ 4.00
Fc1ccc(-c2c[nH]c([C@@H]3COCCN3Cc3cccnc3)n2)c(F)c1 | ≤ 4.00
COc1cc(CNCCC(C)C)ccc1OCC(O)CN1CCSCC1 (stereo not shown) | ≤ 4.00
c1ccc2c(Oc3nc(Nc4ccc(N5CCOCC5)cc4)c4ncn(C5CCCCC5)c4n3)cccc2c1 | ≤ 4.00
Cc1ccc(Sc2ccccc2N2CCNCC2)c(C)c1 | ≤ 4.00

Sample 2 — species: mouse; sample: microsomes or S9; concentration: 2 µM; time: 0.5 h
Structure (SMILES) | remaining compound
Cc1nc(C2(NS(=O)(=O)c3c(C)c(C)c(C)c(C)c3C)CCCC2)no1 | 0.446%
Cc1ccc(CN(CCCn2ccnc2)Cc2ccc3ncccc3c2)s1 | 74.7%
COc1cc(/C=C/C(=O)N2CCC=CC2=O)cc(OC)c1OC | 0.0459%
CCOc1ccc2[nH]c3c(=O)n(CCN(C(C)C)C(C)C)cnc3c2c1 | 1.46%
COc1cc(Br)c(S(=O)(=O)N[C@@H]2CCCN(C(=O)c3ccccc3)C2)cc1OC | 14.4%
NC(CC(=O)N1CCCCN1)Cc1ccccc1F (stereo not shown) | 46.6%
Cc1nn(C)c(-c2nc(-c3ccc(Br)o3)no2)c1Cl | 1.78%
CC(Nc1ncc(Cl)cn1)C(C)n1cncn1 (stereo not shown) | 86.1%
Oc1ccccc1O/C(=C/n1ccnc1)c1ccccc1 | 12.4%

Sample 3 — method: competition with immobilised ligand; concentration: 1 µM
SMILES: Cc1nc(N2CC[C@@H](O)C2)ncc1-c1cc(C(F)(F)F)cc2[nH]ncc12
target | observed | remaining binding
Serine/threonine-protein kinase BRSK1 (BRSK1, Homo sapiens, UniProt Q8TDC3) | binding | 100%
Serine/threonine-protein kinase Chk1 (CHEK1, Homo sapiens, UniProt O14757) | binding | 100%
Inhibitor of nuclear factor kappa-B kinase subunit beta (IKBKB, Homo sapiens, UniProt O14920) | cell-free assay | 77%
Dual serine/threonine and tyrosine protein kinase (DSTYK, Homo sapiens, UniProt Q6XUX3) | binding | 88%
Dual specificity mitogen-activated protein kinase kinase 6 (MAP2K6, Homo sapiens, UniProt P52564) | binding | 100%
Tyrosine-protein kinase JAK1, JH1 (JAK1, Homo sapiens, UniProt P23458) | binding | 78%
Protein kinase C iota type (PRKCI, Homo sapiens, UniProt P41743) | cell-free assay | 100%
Insulin receptor (INSR, Homo sapiens, UniProt P06213) | cell-free assay | 100%
Serine/threonine-protein kinase RIO3 (RIOK3, Homo sapiens, UniProt O14730) | binding | 100%
Activin receptor type-1-like (ACVRL1, Homo sapiens, UniProt P37023) | binding | 100%
LIM domain kinase 2 (LIMK2, Homo sapiens, UniProt P53671) | binding | 100%
ALK tyrosine kinase receptor (ALK, Homo sapiens, UniProt Q9UM73, L1196M) | cell-free assay | 98%
Citron Rho-interacting kinase (CIT, Homo sapiens, UniProt O14578) | binding | 82%
Ribosomal protein S6 kinase alpha-2, N-terminal kinase domain (RPS6KA2, Homo sapiens, UniProt Q15349) | binding | 100%
Wee1-like protein kinase 2 (WEE2, Homo sapiens, UniProt P0C1S8) | binding | 100%
TGF-beta receptor type-1 (TGFBR1, Homo sapiens, UniProt P36897) | cell-free assay | 100%

Mixed results
Structure (SMILES) | tested on | test | system | conditions | how to read | measurement | value
COc1cc2c(cc1OC)-c1[nH]nc(Nc3cccc(F)c3)c1C2 | Serine/threonine-protein kinase 3 (STK3, Homo sapiens, UniProt Q13188) | enzyme activity, inhibitor | – | 0.5 µM | reference: control | remaining activity | 93%
CC(C)n1cnc(-c2ccc(F)cc2)c1-c1ncc(C(=O)Nc2ccc(N3CCN(C)CC3)cc2)[nH]1 | – | – | IPF patients | 30 mg once daily, adverse event incidence | – | blood glucose increased | 0%

Some of these lines once more (sample 3):
target | observed | remaining binding
Protein kinase C iota type (PRKCI, Homo sapiens, UniProt P41743) | cell-free assay | 100%
Activin receptor type-1-like (ACVRL1, Homo sapiens, UniProt P37023) | binding | 100%
